# Results pooled from the literature.
# Every numbered part comes from another study and shows a few of its results, in no order. Several values in a cell are separate wells, animals, samples, runs or records.
# Sequence of UniProt Q7KZI7 (whole entry, looked up): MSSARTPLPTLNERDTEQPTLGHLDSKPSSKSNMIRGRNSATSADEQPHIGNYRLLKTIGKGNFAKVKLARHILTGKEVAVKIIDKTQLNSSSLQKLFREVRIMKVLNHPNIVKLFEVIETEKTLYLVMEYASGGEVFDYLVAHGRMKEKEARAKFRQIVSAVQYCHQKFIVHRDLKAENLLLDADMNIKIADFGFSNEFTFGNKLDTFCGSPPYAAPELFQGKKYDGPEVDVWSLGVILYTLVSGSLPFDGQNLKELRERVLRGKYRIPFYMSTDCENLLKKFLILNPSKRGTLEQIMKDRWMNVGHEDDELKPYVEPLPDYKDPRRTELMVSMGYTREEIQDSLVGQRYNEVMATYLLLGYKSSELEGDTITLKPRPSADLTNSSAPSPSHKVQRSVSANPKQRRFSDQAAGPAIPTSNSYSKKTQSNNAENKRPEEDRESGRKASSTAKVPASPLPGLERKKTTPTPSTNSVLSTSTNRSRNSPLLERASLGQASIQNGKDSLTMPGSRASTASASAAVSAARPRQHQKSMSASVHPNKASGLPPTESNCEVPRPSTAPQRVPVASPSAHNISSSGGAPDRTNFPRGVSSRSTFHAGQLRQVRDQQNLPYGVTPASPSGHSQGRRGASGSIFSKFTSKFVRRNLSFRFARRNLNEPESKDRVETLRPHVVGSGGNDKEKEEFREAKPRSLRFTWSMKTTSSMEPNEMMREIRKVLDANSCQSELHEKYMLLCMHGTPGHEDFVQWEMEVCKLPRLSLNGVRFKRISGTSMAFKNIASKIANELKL
# Sequence of UniProt Q9H4B4 (whole entry, looked up): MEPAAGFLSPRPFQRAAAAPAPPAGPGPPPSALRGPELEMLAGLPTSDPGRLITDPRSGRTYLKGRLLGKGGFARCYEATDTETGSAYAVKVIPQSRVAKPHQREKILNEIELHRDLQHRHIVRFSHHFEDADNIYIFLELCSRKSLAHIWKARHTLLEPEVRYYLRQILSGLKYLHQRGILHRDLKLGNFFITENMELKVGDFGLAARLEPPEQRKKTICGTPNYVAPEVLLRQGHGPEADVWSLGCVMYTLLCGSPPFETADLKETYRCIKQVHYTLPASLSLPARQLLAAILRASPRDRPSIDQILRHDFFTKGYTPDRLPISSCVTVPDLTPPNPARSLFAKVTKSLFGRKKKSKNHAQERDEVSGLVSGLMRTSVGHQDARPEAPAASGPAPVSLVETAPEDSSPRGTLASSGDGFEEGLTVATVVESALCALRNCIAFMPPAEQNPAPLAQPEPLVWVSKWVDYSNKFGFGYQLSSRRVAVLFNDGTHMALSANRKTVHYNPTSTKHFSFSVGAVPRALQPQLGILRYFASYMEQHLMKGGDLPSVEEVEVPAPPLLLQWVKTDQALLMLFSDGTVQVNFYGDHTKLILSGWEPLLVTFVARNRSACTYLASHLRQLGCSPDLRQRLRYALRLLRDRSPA
# Sequence of UniProt Q15759 (whole entry, looked up): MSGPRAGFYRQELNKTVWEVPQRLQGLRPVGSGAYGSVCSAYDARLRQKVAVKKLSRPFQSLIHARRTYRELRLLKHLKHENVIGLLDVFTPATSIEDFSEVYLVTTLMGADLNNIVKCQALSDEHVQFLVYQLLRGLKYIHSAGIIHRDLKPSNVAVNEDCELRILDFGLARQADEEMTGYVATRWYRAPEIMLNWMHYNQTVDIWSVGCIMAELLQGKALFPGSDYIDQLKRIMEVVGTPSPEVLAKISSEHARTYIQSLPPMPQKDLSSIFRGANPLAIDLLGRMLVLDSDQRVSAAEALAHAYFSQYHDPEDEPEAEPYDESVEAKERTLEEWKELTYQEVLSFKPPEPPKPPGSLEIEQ
# Sequence of UniProt Q16539 (whole entry, looked up): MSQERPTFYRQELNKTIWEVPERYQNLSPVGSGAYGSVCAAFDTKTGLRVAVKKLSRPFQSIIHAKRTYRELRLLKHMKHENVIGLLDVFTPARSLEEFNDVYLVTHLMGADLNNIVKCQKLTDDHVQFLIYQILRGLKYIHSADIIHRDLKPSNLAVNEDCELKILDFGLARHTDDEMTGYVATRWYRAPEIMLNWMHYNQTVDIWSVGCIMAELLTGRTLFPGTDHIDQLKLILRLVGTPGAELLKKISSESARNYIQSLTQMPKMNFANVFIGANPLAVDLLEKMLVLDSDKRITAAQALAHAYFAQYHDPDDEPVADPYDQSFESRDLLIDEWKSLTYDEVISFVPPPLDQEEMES
# Sequence of UniProt Q8N4C8 (whole entry, looked up): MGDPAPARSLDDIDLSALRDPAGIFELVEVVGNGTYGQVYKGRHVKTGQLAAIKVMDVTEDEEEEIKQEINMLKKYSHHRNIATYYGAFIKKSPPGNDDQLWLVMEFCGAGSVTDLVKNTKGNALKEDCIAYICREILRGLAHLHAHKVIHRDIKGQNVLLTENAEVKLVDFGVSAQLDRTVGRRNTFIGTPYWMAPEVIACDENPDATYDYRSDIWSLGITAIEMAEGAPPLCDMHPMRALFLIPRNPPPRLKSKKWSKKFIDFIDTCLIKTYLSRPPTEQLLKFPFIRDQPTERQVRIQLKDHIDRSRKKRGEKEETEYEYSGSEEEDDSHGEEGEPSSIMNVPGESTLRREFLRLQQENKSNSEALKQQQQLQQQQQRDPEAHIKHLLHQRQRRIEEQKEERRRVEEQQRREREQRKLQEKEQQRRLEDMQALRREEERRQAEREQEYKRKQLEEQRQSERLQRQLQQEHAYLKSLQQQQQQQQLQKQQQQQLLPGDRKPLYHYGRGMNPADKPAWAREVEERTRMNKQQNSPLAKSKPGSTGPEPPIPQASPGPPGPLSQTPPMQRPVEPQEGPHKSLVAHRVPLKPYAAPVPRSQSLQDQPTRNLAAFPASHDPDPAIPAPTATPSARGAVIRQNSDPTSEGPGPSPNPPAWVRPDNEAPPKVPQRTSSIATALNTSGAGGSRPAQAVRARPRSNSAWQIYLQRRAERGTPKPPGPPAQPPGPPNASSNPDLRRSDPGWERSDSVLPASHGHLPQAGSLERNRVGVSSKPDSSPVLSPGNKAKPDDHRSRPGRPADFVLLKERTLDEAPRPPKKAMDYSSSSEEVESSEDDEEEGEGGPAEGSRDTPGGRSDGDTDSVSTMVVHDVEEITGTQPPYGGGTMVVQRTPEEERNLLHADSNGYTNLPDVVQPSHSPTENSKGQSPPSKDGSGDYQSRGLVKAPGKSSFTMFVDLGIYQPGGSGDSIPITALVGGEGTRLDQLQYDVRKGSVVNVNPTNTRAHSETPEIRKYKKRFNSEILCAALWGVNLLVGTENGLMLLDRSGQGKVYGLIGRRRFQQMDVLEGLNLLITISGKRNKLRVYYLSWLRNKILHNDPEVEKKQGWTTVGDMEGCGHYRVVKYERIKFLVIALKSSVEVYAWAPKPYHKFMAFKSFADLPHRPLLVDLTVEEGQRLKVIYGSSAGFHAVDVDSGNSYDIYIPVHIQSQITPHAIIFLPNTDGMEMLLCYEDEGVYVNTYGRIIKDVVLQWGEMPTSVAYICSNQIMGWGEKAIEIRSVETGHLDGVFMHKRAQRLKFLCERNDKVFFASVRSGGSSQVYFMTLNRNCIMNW
# Sequence of UniProt P42681 (whole entry, looked up): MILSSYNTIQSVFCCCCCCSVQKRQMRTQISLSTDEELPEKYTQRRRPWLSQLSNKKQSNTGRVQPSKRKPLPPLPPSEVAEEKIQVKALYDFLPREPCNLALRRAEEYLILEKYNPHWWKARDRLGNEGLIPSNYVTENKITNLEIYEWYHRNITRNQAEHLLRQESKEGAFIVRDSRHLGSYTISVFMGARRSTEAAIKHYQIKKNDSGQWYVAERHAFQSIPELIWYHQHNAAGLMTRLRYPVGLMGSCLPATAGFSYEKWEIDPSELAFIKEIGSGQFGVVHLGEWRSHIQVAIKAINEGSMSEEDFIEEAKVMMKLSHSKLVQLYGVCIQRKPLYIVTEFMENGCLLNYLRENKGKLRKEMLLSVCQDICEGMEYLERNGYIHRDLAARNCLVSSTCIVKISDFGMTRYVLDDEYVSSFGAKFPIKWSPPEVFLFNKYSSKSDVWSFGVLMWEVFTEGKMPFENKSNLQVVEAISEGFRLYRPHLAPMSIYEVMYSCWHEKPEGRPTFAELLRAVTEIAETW
# Sequence of UniProt Q16566 (whole entry, looked up): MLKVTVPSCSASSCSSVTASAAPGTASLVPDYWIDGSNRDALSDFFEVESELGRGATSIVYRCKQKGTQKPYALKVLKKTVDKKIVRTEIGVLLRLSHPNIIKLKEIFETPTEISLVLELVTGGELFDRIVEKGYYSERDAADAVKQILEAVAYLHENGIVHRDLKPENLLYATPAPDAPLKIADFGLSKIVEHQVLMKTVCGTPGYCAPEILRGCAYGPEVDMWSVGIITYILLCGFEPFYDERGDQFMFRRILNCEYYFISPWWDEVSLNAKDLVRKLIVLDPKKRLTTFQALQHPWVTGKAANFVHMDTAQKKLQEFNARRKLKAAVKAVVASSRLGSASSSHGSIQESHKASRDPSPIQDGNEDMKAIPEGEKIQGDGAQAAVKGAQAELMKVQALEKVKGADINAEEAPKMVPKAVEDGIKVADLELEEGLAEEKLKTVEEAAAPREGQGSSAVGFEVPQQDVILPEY
# Sequence of UniProt P50750 (whole entry, looked up): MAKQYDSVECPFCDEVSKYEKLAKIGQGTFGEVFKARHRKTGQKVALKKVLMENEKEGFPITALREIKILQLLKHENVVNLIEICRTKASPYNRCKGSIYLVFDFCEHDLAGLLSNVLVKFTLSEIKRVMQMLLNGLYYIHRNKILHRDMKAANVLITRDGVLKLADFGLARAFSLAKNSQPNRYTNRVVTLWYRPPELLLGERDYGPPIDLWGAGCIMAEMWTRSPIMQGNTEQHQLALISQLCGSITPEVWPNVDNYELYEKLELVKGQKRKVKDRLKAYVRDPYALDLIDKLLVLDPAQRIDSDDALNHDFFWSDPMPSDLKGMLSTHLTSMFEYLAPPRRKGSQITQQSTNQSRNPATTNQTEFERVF

# Sample 1
# Target: TAR DNA-binding protein 43, full length, His tag (TARDBP, Homo sapiens, UniProt Q13148, residues 1-414)
# Method: RNA Bind-n-Seq
# Form: RNA
# Matrix: in vitro
# Tested at: 20 nM
# Setting: 6-mer, flanks averaged, single round
# With: 150 mM KCl
# Baseline: input library
# Reading: higher = stronger binding
Oligonucleotide,6-mer enrichment (R)
UACCAA,0.627
UGUCCA,0.649
UGCAAC,0.658
GGGAAA,2.29
UUUAGG,0.844
CGGCCA,0.902
CGAGGU,1.4
GACUAA,0.697

# Sample 2
# Target: Probable WRKY transcription factor 50, DNA-binding domain (WRKY50, Arabidopsis thaliana, UniProt Q8VWQ5, residues 99-173)
# Method: DNA-protein interaction ELISA
# Form: double-stranded DNA, one strand shown
# Matrix: in vitro, bacterial lysate
# Tested at: not given
# Setting: whole dsDNA probe, crude lysate protein
# Baseline: highest signal in screen
# Reading: higher = stronger binding
# Residues (chain): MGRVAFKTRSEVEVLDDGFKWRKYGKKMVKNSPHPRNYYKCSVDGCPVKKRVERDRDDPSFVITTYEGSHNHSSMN
Oligonucleotide,relative absorbance
AAAAAATGCAACGCTCCTTTCCCGCTAAAA,24.9 % of maximum
AAAAAAGCCCCTTGCGCCTCTCTACCAAAA,11.3 % of maximum
AAAAAAGGCTCCGGCCCCCAATCGCAAAAA,11.1 % of maximum
AAAAAACGTATTGATGTCTATTTCAAAAAA,11.3 % of maximum
AAAAAATGAGAGAATTTCCGGTTCAGAAAA,27.9 % of maximum
AAAAAAATCGTTGTTATCGTATTTATAAAA,29.6 % of maximum
AAAAAAAAATCGAATTTGGACTTCCGAAAA,22.3 % of maximum
AAAAAAGGCTGTGGCCAATGTTCGTAAAAA,12.3 % of maximum

# Sample 3
# SMILES: Nc1ncnc2c1cnn2-c1ccccc1
# Effect on: enzyme activity
# Mode: inhibitor
# Tested at: 0.5 µM
# Baseline: control
target,remaining activity
"MINK1 (Homo sapiens, UniProt Q8N4C8)",88.9%
"CDC42BPB (Homo sapiens, UniProt Q9Y5S2)",96.7%
"MAP2K1 (Homo sapiens, UniProt Q02750)",93.9%
"MAPK11 (Homo sapiens, UniProt Q15759)",99.9%
"TXK (Homo sapiens, UniProt P42681)",94.8%
"CAMK4 (Homo sapiens, UniProt Q16566)",104%
"GRK4 (Homo sapiens, UniProt P32298)",106%
"Cyclin-dependent kinase 9, with cyclin K (CDK9, Homo sapiens, UniProt P50750)",92.9%
"MAPK14 (Homo sapiens, UniProt Q16539)",89.2%
"MAPK1 (Homo sapiens, UniProt P28482)",85.4%
"MARK2 (Homo sapiens, UniProt Q7KZI7)",95.3%
"PRKG2 (Homo sapiens, UniProt Q13237)",99.2%
"AKT2 (Homo sapiens, UniProt P31751)",102%
"PLK3 (Homo sapiens, UniProt Q9H4B4)",94.6%

# Other studies, line by line
Substance,tested on,assay,system,setting,how to read,endpoint,result
CO[C@@H](C)c1c(Nc2ccc([C@@H](N(C)C(=O)C3CCS(=O)(=O)CC3)C(F)(F)F)cc2)cnc2cc(Cl)nn12,normal organoid sample H,CellTiter-Glo,"human, normal-adjacent epithelium",1 µM,baseline: DMSO,viability,130% and 88.5%
"CHCHD6 (Homo sapiens, UniProt Q9BRQ6)","CHCHD3 (Homo sapiens, UniProt Q9NX63)",cross-linking MS,,hits only,,interaction screen,cross-linked
Cn1cncc1[C@@](O)(COc1ccc(C#N)cc1-c1ccc(OC(F)(F)F)cc1)c1ccc(C#N)cc1,HEK293T,high-content imaging,,"10 µM, 0 h",,cells with healthy nuclei,52.7% and 68.8%
CN1CCN(c2cnc3c(C4CCN(C(=O)c5ccc(OC(F)(F)F)cc5N)CC4)ncnc3c2)CC1,normal organoid sample H,CellTiter-Glo,"human, normal-adjacent epithelium",1 µM,baseline: DMSO,viability,98.7% and 96.1%

# Excerpt of the above (sample 1):
Oligonucleotide,6-mer enrichment (R)
UACCAA,0.627
CGAGGU,1.4
UUUAGG,0.844
